Results pooled from the literature.
Every numbered part comes from another study and shows a few of its results, in no order.

Study 1
Target: Replicase polyprotein 1ab, main protease (rep, Severe acute respiratory syndrome coronavirus 2, UniProt P0DTD1)
Effect on: enzyme activity
Tested at: 20 µM
Setting: with DTT
Structure (SMILES) | inhibition [%]
CN1Cc2ccccc2[C@@H]2c3cccc4[nH]cc(c34)C[C@H]21 | -3.6
COc1ccc(OC)c2c(=S)c3ccccc3[nH]c12 | -11.4
FC(F)(F)c1cc(NC(=S)Nc2ccc(Br)cc2-c2nnn[nH]2)cc(C(F)(F)F)c1 | -13.6
Nc1nc(-c2ccc(Cl)c(Cl)c2)c(-c2ccncc2)s1 | -20.4

Study 2
Target: Replicase polyprotein 1ab, nsp13 helicase (rep, Severe acute respiratory syndrome coronavirus 2, UniProt P0DTD1)
Mode: inhibitor
Tested at: 20 µM
Structure (SMILES) | inhibition [%]
CS(=O)(=O)c1ccc([C@@H](O)[C@@H](CF)NC(=O)C(Cl)Cl)cc1 | 3.83
O=C(NCCCN1CCC2(CC1)OCc1ccccc12)[C@H]1CCCN1Cc1ccccc1 | -1.18
C=CCN1CCCC1CNC(=O)c1cc2nn[nH]c2cc1OC (stereo not shown) | 3.3
COc1cc2nccc(Oc3ccc(NC(=O)Nc4ccc(F)cc4F)c(F)c3)c2cc1OC | 1.44
C[C@@H](C(=O)O)c1ccc(-c2ccccc2)c(F)c1 | -0.66
COc1ccc(S(=O)(=O)N(CCO)c2ccccc2CN(C)C/C=C/c2ccc(Cl)cc2)cc1 | 8.53
NC(=O)N1c2ccccc2C=Cc2ccccc21 | 5.56
CC1CCc2cc(F)cc3c(=O)c(C(=O)O)cn1c23 (stereo not shown) | -5.44
NC(=O)N1CCC(CC(=O)N2CCC([C@H]3c4ncc(Br)cc4CCc4cc(Cl)cc(Br)c43)CC2)CC1 | 4.76
O=C1C=CC(=O)C2=C1C1c3ccccc3C2c2ccccc21 | 99.3
Nc1ccncc1N | 9.31
Cc1oc(-c2ccccc2)nc1CCOc1ccc(CC2SC(=O)NC2=O)c2sccc12 (stereo not shown) | -0.32
C[C@@H]1CN([C@H]2CC[C@](C#N)(c3ccc(F)cc3)CC2)CC[C@]1(C(=O)O)c1ccccc1 | 2.06
CCCCCC(=O)O[C@]1(C(C)=O)CC[C@H]2[C@@H]3CCC4=CC(=O)CC[C@]4(C)[C@H]3CC[C@@]21C | -6.02
COC(=O)c1sccc1S(=O)(=O)Nc1ccc(Nc2ccccc2)cc1OC | 0.92
CCN1CCN(C(=O)N[C@@H](C(=O)N[C@@H]2C(=O)N3[C@@H]2SC(C)(C)[C@@H]3C(=O)O)c2ccccc2)C(=O)C1=O | -0.8
O=C(Nc1c[nH]nc1-c1nc2ccc(CN3CCOCC3)cc2[nH]1)NC1CC1 | 5.92
NC(=O)c1cn([C@@H]2O[C@H](CO)[C@@H](O)[C@H]2O)c2ncnc(N)c2c1=O | 0.18
NC(=O)c1ccc(-c2nc(-c3ccc4c(c3)OCCO4)c(-c3ccccn3)[nH]2)cc1 | 10.2
CCOC(=O)[C@H](C)C[C@@H](Cc1ccc(-c2ccccc2)cc1)NC(=O)CCC(=O)O | 6.25
NC(=O)c1cccc2cn(-c3ccc([C@@H]4CCCNC4)cc3)nc12 | 9.53
CCCC(C(=O)OCCN(CC)CC)(c1ccccc1)c1ccccc1 | -3.68
N[C@H](C(=O)O)[C@@H]1CC(Cl)=NO1 | 3.94
COc1ccccc1C1(O)CCN(CCCn2c3ccccc3c3ccccc32)CC1 | 11.2
Cc1ncc(CO)c(CO)c1O | 7.07

Study 3
Cell line: HEK-293T/ACE2
Effect on: pseudovirus infection
Organism: VSV pseudotyped with SARS-CoV-2 spike
Tested at: concentration not given
Baseline: vehicle-treated
Compound | GFP-positive cells [%]
OC[C@H]1O[C@@H](c2ccc(Cl)c(Cc3ccc(O[C@H]4CCOC4)cc3)c2)[C@H](O)[C@@H](O)[C@@H]1O | 104
Cc1ccc(-n2nccn2)c(C(=O)N2CCN(c3nc4cc(Cl)ccc4o3)CC[C@H]2C)c1 | 108
Cc1ccc([C@@H]2O[C@H](CO)[C@@H](O)[C@H](O)[C@H]2O)cc1Cc1ccc(-c2ccc(F)cc2)s1 | 125
COc1c(-c2ccc3cc(NS(C)(=O)=O)ccc3c2)cc(-n2ccc(=O)[nH]c2=O)cc1C(C)(C)C | 70.7

Study 4
Target: Ras GTPase-activating protein-binding protein 1, RRM domain (G3BP1, Homo sapiens, UniProt Q13283)
Chain of UniProt Q13283 (whole entry, looked up): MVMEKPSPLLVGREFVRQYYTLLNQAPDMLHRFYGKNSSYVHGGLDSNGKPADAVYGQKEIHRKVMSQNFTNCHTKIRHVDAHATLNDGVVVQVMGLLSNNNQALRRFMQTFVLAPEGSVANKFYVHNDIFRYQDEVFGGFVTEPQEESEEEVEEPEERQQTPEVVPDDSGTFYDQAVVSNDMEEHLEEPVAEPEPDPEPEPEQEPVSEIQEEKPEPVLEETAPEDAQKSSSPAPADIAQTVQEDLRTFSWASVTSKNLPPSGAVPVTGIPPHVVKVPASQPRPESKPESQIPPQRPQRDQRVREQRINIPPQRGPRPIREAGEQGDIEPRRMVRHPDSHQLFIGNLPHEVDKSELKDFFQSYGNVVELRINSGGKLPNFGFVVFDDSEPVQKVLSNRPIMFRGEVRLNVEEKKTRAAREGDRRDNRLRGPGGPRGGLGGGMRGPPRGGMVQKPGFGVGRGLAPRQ
Technique: RNA Bind-n-Seq
Molecule type: RNA
Medium: in vitro
Tested at: 1 µM
Setting: whole 134-nt RNA, ends assumed
Added: 150 mM KCl
Baseline: input library
Direction: higher = stronger binding
Sequence | log2 enrichment
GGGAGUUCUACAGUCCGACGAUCCCUGUGCUACACAUCGUAUGUACCGAAUCAAACCCCCCCAAAUUUUUAAACCCCCCCAAAAAAGUAUUAUGUUACGCCGUUCGGAUCUGCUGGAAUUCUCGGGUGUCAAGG | -1.52
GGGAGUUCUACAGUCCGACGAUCCAAGUCCUGUGCUACACAUCGUAUGUACCGAAUCGGGAAAGGGAAAAAGGGUGGGAAAGUAUUAUGUUACGCCGUUCGGAUCUGCACUUCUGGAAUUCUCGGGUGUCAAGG | 0.888
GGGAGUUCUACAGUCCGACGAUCUUCACACCAAGCUGGGGAACAUCAAGACCUUAAACCUGGCAGGCAACCUCCUAGAGAGUCUGAGUGGCCUGCACAAGCUCUACUCACUGGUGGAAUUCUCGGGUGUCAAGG | -0.268
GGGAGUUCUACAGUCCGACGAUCACCAUGUAGGUGGGCAUCUUUGGGAAGUGGGGCAAGGGGGGGAUAGGGAGGGGGGUAACACUUUGGGAACAGGUGGUCCCAGGUCGUUUCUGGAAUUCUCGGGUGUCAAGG | -0.259
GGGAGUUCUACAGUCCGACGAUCAAGUCCUGUGCUACACAUCGUAUGUACCGAAUCGGGUUUUUUUGGGAAAGGGUGGGAAAGUAUUAUGUUACGCCGUUCGGAUCUGCACUUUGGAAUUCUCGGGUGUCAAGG | 0.459
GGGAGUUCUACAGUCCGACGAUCGUCCUGUGCUACACAUCGUAUGUACCGAAUCGGGGAAAAAGGGAAAAAGGGAAAAAGGAAAGUAUUAUGUUACGCCGUUCGGAUCUGCACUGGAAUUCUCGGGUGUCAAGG | -0.0453

Study 5
Target: Centromere-binding protein 1, full length, N-terminal tag (CBF1, Saccharomyces cerevisiae, UniProt P17106, residues 1-351)
Chain of UniProt P17106 (whole entry, looked up): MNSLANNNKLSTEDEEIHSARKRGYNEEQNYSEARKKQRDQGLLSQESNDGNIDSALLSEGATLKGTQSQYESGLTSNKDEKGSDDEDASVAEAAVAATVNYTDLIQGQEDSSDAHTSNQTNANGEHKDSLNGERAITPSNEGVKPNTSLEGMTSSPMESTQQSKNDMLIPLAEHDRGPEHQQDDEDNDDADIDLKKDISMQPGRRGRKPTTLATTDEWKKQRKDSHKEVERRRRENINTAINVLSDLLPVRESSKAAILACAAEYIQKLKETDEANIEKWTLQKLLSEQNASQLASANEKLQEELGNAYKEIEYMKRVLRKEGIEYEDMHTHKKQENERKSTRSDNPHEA
Technique: protein-binding microarray
Molecule type: double-stranded DNA, one strand shown
Medium: in vitro
Tested at: 0.8 µM
Setting: whole 60-bp probe, no competitor
Direction: higher = stronger binding
Sequence | fluorescence intensity
GAAAGAATGGCAAACCACATGCAAGCATCCAGTTAGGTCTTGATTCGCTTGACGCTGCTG | 580 a.u.
GAACCAAAGGCTGATCACCTGGTTCGGGCACAATAGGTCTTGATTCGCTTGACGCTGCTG | 1610 a.u.
CTATAAATAAGAGGGTACGTGATTATAAACAGATTCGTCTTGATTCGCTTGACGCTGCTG | 956 a.u.
GAACTTCTCCGTATTTACACCACCAGAAGCGTTTAGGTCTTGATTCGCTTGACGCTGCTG | 531 a.u.
GAAAAGCAGTAACCCCACGAAATTTTAACCAGTTAGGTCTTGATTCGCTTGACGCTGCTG | 515 a.u.

Study 6
Target: Interferon regulatory factor 7, full length, phosphomimetic (IRF7, Homo sapiens, UniProt Q92985, residues 1-503, S471D/S472D/S475D/S476D/S477D/S483D/S484D/S487D)
Chain of UniProt Q92985 (whole entry, unmodified, looked up): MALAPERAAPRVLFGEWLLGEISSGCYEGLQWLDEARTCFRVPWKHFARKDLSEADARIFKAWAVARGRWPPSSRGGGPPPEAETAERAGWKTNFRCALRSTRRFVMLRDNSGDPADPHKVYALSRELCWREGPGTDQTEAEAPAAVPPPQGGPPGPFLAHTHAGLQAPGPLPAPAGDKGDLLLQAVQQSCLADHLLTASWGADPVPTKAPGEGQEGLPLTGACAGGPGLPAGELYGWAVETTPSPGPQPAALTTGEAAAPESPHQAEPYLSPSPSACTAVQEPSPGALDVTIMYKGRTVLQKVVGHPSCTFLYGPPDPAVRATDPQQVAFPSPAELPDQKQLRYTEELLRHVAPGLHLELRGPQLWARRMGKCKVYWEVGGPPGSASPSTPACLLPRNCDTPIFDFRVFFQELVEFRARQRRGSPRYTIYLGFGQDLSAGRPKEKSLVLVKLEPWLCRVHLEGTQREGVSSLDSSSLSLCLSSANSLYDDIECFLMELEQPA
Technique: protein-binding microarray
Molecule type: double-stranded DNA, one strand shown
Medium: in vitro
Tested at: 2200 nM top
Setting: 60-bp whole probe
Added: salmon DNA 0.4 mg/ml
Baseline: random background probes
Direction: higher = stronger binding
All sequences stand within: GCCTAGCAC … GTGCTAGGTCTTGATTCGCTTGACGCTGCTG
Sequence | fitted relative affinity [z-score]
GACAGTCTCGGACTGGGGAC | -0.469
CCAGACTGCAGAGCAAGATC | -0.528
GACGGTCTCCTTCTCCGGAC | 0.592
TCAGCTTTCTTTATGCAACT | 1.7
GACGGTCTCGGTGTCGGGAC | -0.507
TTAGAACTGAGTCTCTATTA | -0.41
TCACCTTTGCCTCTGAGACT | 1.58
GACGGTCTCCTACTGCAGAC | 0.358

Some of these lines once more (study 2):
Structure (SMILES) | inhibition [%]
O=C1C=CC(=O)C2=C1C1c3ccccc3C2c2ccccc21 | 99.3
CS(=O)(=O)c1ccc([C@@H](O)[C@@H](CF)NC(=O)C(Cl)Cl)cc1 | 3.83
NC(=O)c1cn([C@@H]2O[C@H](CO)[C@@H](O)[C@H]2O)c2ncnc(N)c2c1=O | 0.18
C=CCN1CCCC1CNC(=O)c1cc2nn[nH]c2cc1OC (stereo not shown) | 3.3
Cc1ncc(CO)c(CO)c1O | 7.07
COc1ccc(S(=O)(=O)N(CCO)c2ccccc2CN(C)C/C=C/c2ccc(Cl)cc2)cc1 | 8.53
NC(=O)c1cccc2cn(-c3ccc([C@@H]4CCCNC4)cc3)nc12 | 9.53
CCCCCC(=O)O[C@]1(C(C)=O)CC[C@H]2[C@@H]3CCC4=CC(=O)CC[C@]4(C)[C@H]3CC[C@@]21C | -6.02
